# Measurements from different studies.
# Protocols differ between the studies behind these lines. “And” joins repeats or separate records; there may be more than shown. ± gives the spread as reported.
SMILES,organism,assay,system,setting,how to read,measurement,result
CC(=O)NC[C@H]1CN(c2ccc(N3CCOCC3)c(F)c2)C(=O)O1,Enterococcus faecalis,,"vancomycin-intermediate, 10 isolates",serum 50%,,MIC50,4 µg/mL
CCOC(=O)c1c(C)nc(NCCCCNc2ccnc3cc(Cl)ccc23)nc1-c1ccccc1,reovirus 1,viral replication,Vero,,,EC50,> 100 µM
N=C(N)c1ccc(OCCC(CCOc2ccc(C(=N)N)cc2)c2ccccc2)cc1 (stereo not drawn),Escherichia coli,checkerboard,552100 clinical isolate,"unit not given, added: rifampicin",lower = stronger synergy,FICI,≤ 0.063
O=c1[nH]c2ncsc2c(=O)n1O,Brassica rapa,,,"1500 g/ha, 21 days, post-emergence, glasshouse pot",,growth inhibition,83.8%
COC(=O)[C@@H](CCSC)NCc1cc2ccccc2nc1SC,Pseudomonas aeruginosa,,,"64 µg/mL, without pentamidine",relative to: control,growth,90.8%
Cc1cc(-c2cn[nH]c2-c2cccc(OCc3cccc(C#N)c3)c2)cc(C)n1,Enterobacter cloacae,CLSI broth microdilution,AR-0163,,,MIC,8 µg/mL
Cc1nc2[nH]c(=O)n(O)c(=O)c2s1,Brassica rapa,,,"100 mg/mL, 72 h",,root length inhibition,95%
CC(=O)NC[C@H]1CN(c2ccc(N3CCOCC3)c(F)c2)C(=O)O1,Staphylococcus aureus,broth microdilution,MRSA NRS123 USA400,,,MBC,16 µM
CCCc1cc(=O)c2c(o1)C[C@@H](O)C[C@H]2O,Zika virus,"viral replication, CCK-8",Vero C1008,"10 µM, 96 h",,inhibition,12.2 ± 8.98%
CCCCc1ccc(CNc2nc(N(C)C)nc(N(C)C)c2/N=N/c2ccc(Cl)cc2)cc1,Ostrinia furnacalis,,corn seedlings,"foliar spray, 100 mg/L, 7 days",,control efficacy,69%
CC(C)c1nc2[nH]c(=O)n(O)c(=O)c2s1,Brassica rapa,,,"10 mg/mL, 72 h",,root length inhibition,54%
Nc1nc2c(ncn2COCCO)c(=O)[nH]1,Epstein-Barr virus,"viral replication, qPCR",,mean,,EC50,6.74 µM
CCCc1nc2c(=O)n(O)c(=O)[nH]c2s1,Brassica rapa,,,"100 mg/mL, 72 h",,root length inhibition,75%
CCOc1ccc2cc(-c3nn(CC4CCN(C)CC4)c4ncnc(N)c34)ccc2c1,Neospora caninum,qPCR,"sheep foetuses or lambs, mid-pregnancy infection, foetal brain","concentration not given, treated infected group, negatives set to 0.01",,parasite burden,9.02 tachyzoites/mg tissue and 2.56 tachyzoites/mg tissue and 18.7 tachyzoites/mg tissue and 0.36 tachyzoites/mg tissue
O=c1[nH]c2scnc2c(=O)n1O,Brassica rapa,,,"10 mg/mL, 72 h",,root length inhibition,24%
CC(=O)N1CCC(C(=O)N2CCN3C(=O)c4cc(-c5ccccc5)ccc4NC(=O)C3C2)CC1 (stereo not drawn),Caenorhabditis elegans,,N2,3.125 µM,,mean lifespan,19.2 days
CCc1nc2[nH]c(=O)n(O)c(=O)c2s1,Brassica rapa,,,"100 mg/mL, 72 h",,root length inhibition,97%
CC(C)n1ncc2c(C(=O)NCC3(C)CNC3)cc(C3CC3)nc21,Enterovirus D68,viral replication,"RD, recombinant wild-type US/MO/14-18947",3 µM,relative to: untreated,plaque area,0%
COC[C@H]1O[C@@H]2O[C@H]3[C@H](OC)[C@@H](OC)[C@@H](O[C@H]4[C@H](OC)[C@@H](OC)[C@@H](O[C@H]5[C@H](OC)[C@@H](OC)[C@@H](O[C@H]6[C@H](OC)[C@@H](OC)[C@@H](O[C@H]7[C@H](OC)[C@@H](OC)[C@@H](O[C@H]8[C@H](OC)[C@@H](OC)[C@@H](O[C@H]1[C@H](OC)[C@H]2OC)O[C@@H]8COC)O[C@@H]7COC)O[C@@H]6COC)O[C@@H]5COC)O[C@@H]4COC)O[C@@H]3COC,Escherichia coli,"LuxR reporter, agonist",DH5α sensor strain,200 µM,,bioluminescence,742 ± 97 RLU
CC(C)[C@@H]1NC(=O)[C@@H](CCN)NC(=O)[C@H]([C@@H](C)O)NC(=O)[C@@H](CCCN)NC(=O)[C@H](Cc2ccccc2)NC(=O)[C@@H](Cc2ccccc2)NC1=O,Acanthamoeba castellanii,,,trophozoites,,IC90,> 16 µg/mL
O=c1[nH]c2sc(-c3ccccc3)nc2c(=O)n1O,Brassica rapa,,,"100 mg/mL, 72 h",,root length inhibition,33%
N=C(N)c1ccc(OCc2ccc(-c3ccccc3)cc2COc2ccc(C(=N)N)cc2)cc1,Escherichia coli,checkerboard,W3110,"unit not given, added: rifampicin",lower = stronger synergy,FICI,≤ 0.078
Cc1cc(OC(C)C)ccc1C(=O)C(C)(C)NC(=O)c1sccc1C,Alternaria solani,mycelial growth,PSA medium,20 °C,,EC50,0.02 µg/mL
CN[C@H](CC(C)C)C(=O)N[C@H]1C(=O)N[C@@H](CC(N)=O)C(=O)N[C@H]2C(=O)N[C@H]3C(=O)N[C@H](C(=O)N[C@H](C(=O)O)c4cc(O)cc(O)c4-c4cc3ccc4O)[C@H](O)c3ccc(c(Cl)c3)Oc3cc2cc(c3O[C@@H]2O[C@H](CO)[C@@H](O)[C@H](O)[C@H]2O[C@H]2C[C@](C)(N)[C@H](O)[C@H](C)O2)Oc2ccc(cc2Cl)[C@H]1O,Enterococcus faecalis,,intermediate susceptibility,"0% serum, 10 isolates",,MIC50,2 µg/mL
Cc1cc(C)c2sc(NC(=O)c3cc4ccccc4o3)nc2n1,Zika virus,"cytopathic effect, neutral red uptake","Vero 76, MR766",,,EC50,6 µM
CC(=O)Oc1ccccc1C(=O)Nc1ncc([N+](=O)[O-])s1,Cryptosporidium parvum,,HCT-8,"EC50, 0 h",relative to: DMSO control,parasite number,101% and 96.8% and 109% and 93.3%
Cc1nc2[nH]c(=O)n(OS(=O)(=O)c3ccccc3)c(=O)c2s1,Brassica rapa,,,"10 mg/mL, 72 h",,root length inhibition,20%
CN[C@H](CC(C)C)C(=O)N[C@H]1C(=O)N[C@@H](CC(N)=O)C(=O)N[C@H]2C(=O)N[C@H]3C(=O)N[C@H](C(=O)N[C@H](C(=O)O)c4cc(O)cc(O)c4-c4cc3ccc4O)[C@H](O)c3ccc(c(Cl)c3)Oc3cc2cc(c3O[C@@H]2O[C@H](CO)[C@@H](O)[C@H](O)[C@H]2O[C@H]2C[C@](C)(N)[C@H](O)[C@H](C)O2)Oc2ccc(cc2Cl)[C@H]1O,Streptococcus pyogenes,,"erythromycin-sensitive, 21 strains",,,MBC,8 µg/mL
CCOC(=O)c1c(C)nc(NCCNc2ccnc3cc(Cl)ccc23)nc1-c1ccccc1,reovirus 1,viral replication,Vero,,,EC50,> 4 µM
CC(C)[C@@H]1NC(=O)[C@@H](CCCNC(=N)N)NC(=O)[C@H]([C@@H](C)O)NC(=O)[C@@H](CCCN)NC(=O)[C@H](Cc2ccccc2)NC(=O)[C@@H](Cc2ccccc2)NC1=O,Acanthamoeba castellanii,,,trophozoites,,IC90,> 16 µg/mL

# Excerpt of the above:
SMILES,organism,assay,system,setting,how to read,measurement,result
CN[C@H](CC(C)C)C(=O)N[C@H]1C(=O)N[C@@H](CC(N)=O)C(=O)N[C@H]2C(=O)N[C@H]3C(=O)N[C@H](C(=O)N[C@H](C(=O)O)c4cc(O)cc(O)c4-c4cc3ccc4O)[C@H](O)c3ccc(c(Cl)c3)Oc3cc2cc(c3O[C@@H]2O[C@H](CO)[C@@H](O)[C@H](O)[C@H]2O[C@H]2C[C@](C)(N)[C@H](O)[C@H](C)O2)Oc2ccc(cc2Cl)[C@H]1O,Streptococcus pyogenes,,"erythromycin-sensitive, 21 strains",,,MBC,8 µg/mL
CCOC(=O)c1c(C)nc(NCCNc2ccnc3cc(Cl)ccc23)nc1-c1ccccc1,reovirus 1,viral replication,Vero,,,EC50,> 4 µM
CC(C)[C@@H]1NC(=O)[C@@H](CCCNC(=N)N)NC(=O)[C@H]([C@@H](C)O)NC(=O)[C@@H](CCCN)NC(=O)[C@H](Cc2ccccc2)NC(=O)[C@@H](Cc2ccccc2)NC1=O,Acanthamoeba castellanii,,,trophozoites,,IC90,> 16 µg/mL
